Experimental data pooled from the literature.
Each line is one published result; not all experiments were run side by side. Values joined by “and” are separate records of one study, mostly repeats; a detail may differ. ± gives the spread as reported.

Compound = CC(=O)N[C@@H](CCCCN)C(=O)N[C@H](C(=O)N[C@@H](Cc1ccc(O)cc1)C(=O)N[C@@H](Cc1ccc(O)cc1)C(=O)N[C@@H](CCCNC(=N)N)C(=O)N[C@@H](Cc1ccc(O)cc1)C(=O)N[C@@H](CC(N)=O)C(=O)NCC(=O)N[C@@H](CCCCN)C(=O)N[C@H](C(=O)N[C@@H](Cc1c[nH]c2ccccc12)C(=O)N[C@@H](Cc1c[nH]c2ccccc12)C(=O)N[C@@H](CCCNC(=N)N)C(=O)O)C(C)C)C(C)C; assay = circular dichroism; test system = free peptide in solution; setting = concentration not given, 25 °C, no insulin present; endpoint = β-strand content; result = 35.2%
Compound = COc1cccc(OC)c1-c1cc(C(=O)NC2(C(=O)O)C3CC4CC(C3)CC2C4)nn1-c1ccc(C(=O)N(C)CCCN(C)C(=O)[C@H](CCCCNC(=O)[C@H](CC(C)C)NC(=O)C2OC2C(=O)O)NC(=O)CN2CCN(CC(=O)[O-])CCN(CC(=O)[O-])CCN(CC(=O)[O-])CC2)cc1C(C)C.[177Lu+3] (mixture of isomers); test system = mouse HT-29 xenograft; setting = 24 h, biodistribution; scale = baseline: tumour over pancreas; endpoint = tumour-to-pancreas ratio; result = 22.3
Compound = C=CC(=O)N1CCCC(n2c(=O)c3ncccc3n(Cc3ccc(Oc4ccccc4)cc3)c2=O)C1 (stereo not drawn); assay = metabolic stability; test system = male Sprague-Dawley rat, hepatocytes; setting = 1 µM, 1 h; endpoint = compound remaining; result = 0.5%
Compound = CCCCN1C(=O)c2cccc3c(NCCN4CCOCC4)ccc(c23)C1=O; test system = dichloromethane; endpoint = emission maximum; result = 505 nm
Compound = COCC1CN(C2CCN(c3cc(OC)c(Nc4ncc(Br)c(Nc5ccc6c(c5P(C)(C)=O)OCCO6)n4)cc3C)CC2)C1; test system = EGFR-mutant NSCLC patients; setting = oral, 10 mg once daily; endpoint = patients with adverse events; result = 100%
Compound = CC(C(=O)O)n1nc(Cn2cc3cc(OCC[18F])c(Cl)cc3n2)c2ccccc2c1=O (racemic); test system = rat, liver; setting = 5 min; endpoint = tracer uptake; result = 4.68 %ID/g
Compound = O=C(Nc1cnccc1-c1ccc([18F])cc1)c1ccnc(NC(=O)C2CC2)c1; assay = ex vivo gamma counting; test system = GSK-3β transgenic mice, late-stage, muscle; setting = intravenous, 120 min, added: tariquidar 15 mg/kg iv; endpoint = mean SUV; result = 0.3
Compound = COc1cccc(OC)c1-c1cc(C(=O)NC2(C(=O)O)C3CC4CC(C3)CC2C4)nn1-c1ccc(C(=O)N(C)CCCN(C)CCCN(C)C(=O)[C@H](CCCCNC(=O)[C@H](CC(C)C)NC(=O)C2OC2C(=O)O)NC(=O)CN2CCN(CC(=O)[O-])CCN(CC(=O)[O-])CCN(CC(=O)[O-])CC2)cc1C(C)C.[177Lu+3] (mixture of isomers); test system = mouse HT-29 xenograft; setting = 72 h, biodistribution; scale = baseline: tumour over spleen; endpoint = tumour-to-spleen ratio; result = 8.43
Compound = CCCCN1C(=O)c2cccc3c(NCCCCCCCCN4CCOCC4)ccc(c23)C1=O; test system = DMF; endpoint = emission maximum; result = 527 nm
Compound = C=C[C@]1(C)C[C@@H](OC(=O)CSc2ccc(NC(=O)c3ccco3)cc2)[C@]2(C)[C@H](C)CC[C@]3(CCC(=O)[C@H]32)[C@@H](C)[C@@H]1O; test system = M. gallisepticum-infected chickens, plasma; setting = intramuscular, 80 mg/kg single dose; endpoint = apparent clearance (CL/F); result = 4.31 L/h/kg
Compound = CC1(C)OCCc2cc(C(=O)N3CCC(c4nc(-c5ccccc5)n[nH]4)CC3)ccc21; test system = DPBS; setting = 2 µM; endpoint = stability half-life; result = > 2880 min
Compound = COc1cccc(OC)c1-c1cc(C(=O)NC2(C(=O)O)C3CC4CC(C3)CC2C4)nn1-c1ccc(C(=O)N(C)CCOCCOCCN(C)C(=O)[C@H](CCCCNC(=O)[C@H](CC(C)C)NC(=O)C2OC2C(=O)O)NC(=O)CN2CCN(CC(=O)[O-])CCN(CC(=O)[O-])CCN(CC(=O)[O-])CC2)cc1C(C)C.[177Lu+3] (mixture of isomers); test system = mouse, HT-29 xenograft, kidney; setting = 24 h post injection; endpoint = tissue uptake; result = 6.7 %ID/g
Compound = CC(=O)N1CCN(C(=O)c2ccc(Nc3nccc(-c4ccc(Cl)cc4)n3)cc2)CC1; test system = NSG mice; setting = dose not given, day 4; endpoint = body weight; result = 24.9 g and 25 g and 26 g and 23.6 g
Compound = CCCCN1C(=O)c2cccc3c(NCCCCCN4CCOCC4)ccc(c23)C1=O; test system = dioxane; endpoint = emission maximum; result = 506 nm
Compound = Cc1cnc2nc1Nc1cccc(c1)COC/C=C/COCc1cc(ccc1OCCN1CCOCC1)N2; test system = BALB/c mice, rhEPO-induced polycythemia; setting = 75 mg/kg, day 1; endpoint = body weight; result = 19.9 g and 18.1 g and 19.5 g and 17.8 g and 18.2 g and 17.3 g
Compound = CCCCN1C(=O)c2cccc3c(NCCCCCCN4CCOCC4)ccc(c23)C1=O; test system = chloroform; endpoint = emission maximum; result = 512 nm
Compound = C=CC(=O)Nc1cc(Nc2nccc(-c3c[nH]c4ccccc34)n2)c(OC)cc1N(C)CCN(C)C; assay = storage stability; test system = human plasma; setting = 10 d, on ice, HQC level; endpoint = recovery; result = 61.7%
Compound = CC(C)C[C@H](NC(=O)[C@H](CCCN)NC(=O)CNC(=O)[C@@H](NC(=O)[C@H](C)NC(=O)[C@@H]1CSCSC[C@H](NC(=O)CC[C@H](N)C(=O)O)C(=O)N[C@@H](CC(N)=O)C(=O)N[C@@H]([C@@H](C)O)C(=O)N[C@@H](C)C(=O)N[C@@H]([C@@H](C)O)C(=O)N1)[C@@H](C)O)C(=O)N[C@@H](C)C(=O)N[C@@H](CCC(=O)O)C(=O)N[C@@](C)(Cc1ccccc1)C(=O)N[C@@H](CC(C)C)C(=O)N[C@H](C(=O)N[C@@H](CCCNC(=N)N)C(=O)N[C@@H](CO)C(=O)N[C@@H](CO)C(=O)N[C@@H](CC(N)=O)C(=O)N(C)[C@@H](CC(N)=O)C(=O)N[C@@H](Cc1ccccc1)C(=O)NCC(=O)N1CCC[C@H]1C(=O)N[C@@H](CCCCNC(=O)CC[C@H](NC(=O)CC[C@H](NC(=O)CCCCCCCCCCCCCCCCCCC(=O)O)C(=O)O)C(=O)O)C(=O)N[C@@H](CC(C)C)C(=O)N1CCC[C@H]1C(=O)N1CCC[C@H]1C(=O)N[C@H](C(=O)N[C@@H](CCC(=O)O)C(=O)N[C@H](C(=O)NCC(=O)N[C@@H](CO)C(=O)N[C@@H](CC(N)=O)C(=O)N[C@H](C(=O)N[C@@H](Cc1ccc(O)cc1)C(N)=O)[C@@H](C)O)C(C)C)[C@@H](C)O)C(C)C; test system = cynomolgus monkey, plasma; setting = subcutaneous, 20 nmol/kg, single dose; endpoint = AUC(0-inf); result = 35 µM·h
Compound = CC[C@H](C)[C@@H]1NC(=O)[C@H](Cc2ccc(O)cc2)NC(=O)CCCSC[C@@H](C(=O)N(CC(=O)N[C@@H](CC(C)C)C(=O)NCC(N)=O)Cc2ccc(F)cc2)NC(=O)[C@H](CC(N)=O)NC(=O)[C@H](CCC(N)=O)NC1=O; test system = human; setting = intranasal, 200 µg repeated doses; endpoint = adverse drug reactions; result = 67%
Compound = CC(C)[C@H](NC(=O)[C@H](Cc1ccccc1)NC(=O)[C@H](Cc1ccccc1)NC(=O)OCC1c2ccccc2-c2ccccc21)C(=O)N[C@@H](CCC(=O)O)C(=O)N[C@@H](CCC(=O)O)C(N)=O; assay = CD spectroscopy; test system = peptide nanofibres; endpoint = β-sheet content; result = 38.9%
Compound = CN(O)C(=O)CCC(=O)NCCCN(CCCCN(CCCNC(=O)CCC(=O)N(C)O)C(=O)CCC(=O)N(C)O)C(=O)CCC(=O)N(C)O.[89Zr]; test system = human plasma; setting = 3 d, 37 °C; endpoint = intact complex; result = 100%
Compound = COc1cc2oc(-c3ccc(C(F)(F)F)cc3F)cc(=O)c2c(O)c1O; assay = cyclic voltammetry; test system = DMSO, 0.1 M Bu4NPF6; setting = 25 °C; endpoint = half-wave potential; result = -1.82 V vs Ag/AgCl
Compound = CN([O-])C(=O)CN1CCNCCN(CC(=O)N(C)[O-])CC1.[89Zr+4]; test system = mouse, bone; setting = intravenous, 1 h; endpoint = tracer uptake; result = 0.76 %ID/g
Compound = CCCC[N+]1=c2cc3c4cc2[O][Mn-2]1(=[C]=O)(=[C]=O)(=[C]=O)[n+]1ccc(cc1)C(=O)Nc1ccccc1NC(=O)c1cc[n+](cc1)[Mn-2](=[C]=O)(=[C]=O)(=[C]=O)([O]3)[N+]=4CCCC; test system = PBS with reduced myoglobin; setting = pH 7.4, dark; endpoint = stability time without CO release; result = ≥ 12 h
Compound = CC(C)(O)c1ncc([S@](N)(=O)=NC(=O)Nc2c3c(cc4c2CCC4)CCC3)s1; assay = item: metabolism, nutrition disorders; test system = healthy human; setting = oral, 100 mg, CT formulation, fed; endpoint = subjects with TEAEs; result = 17%
Compound = Cc1[nH]c(=O)c(CNC(=O)c2cc(Cl)c3c(c2C)O[C@@](C)([C@H]2CC[C@H](N(C)C)CC2)O3)c(C)c1O; test system = healthy men, urine and feces; setting = oral, 200 mg [14C]-valemetostat; scale = baseline: dose; endpoint = excretion; result = 6.4%
Compound = CCCCN1C(=O)c2cccc3c(NCCCN4CCOCC4)ccc(c23)C1=O; test system = methanol; endpoint = emission maximum; result = 536 nm
Compound = [123I]c1ccc2nc(-c3ccc(-n4ccnn4)nc3)cn2c1; test system = male Wistar rat, kidney; setting = intravenous, 4 MBq, 14 h; endpoint = tracer uptake; result = 0.02 %ID/g
Compound = Cc1nc(C)c(-c2ccnc(Nc3cccc(C#N)c3)n2)s1; test system = aqueous buffer; setting = pH 7.4; endpoint = thermodynamic solubility; result = < 1.32 µg/mL
Compound = OC1(C(F)(F)F)CCN(c2nc(Nc3ccnc(C(F)(F)F)c3)nc(-c3cccc(C(F)(F)F)n3)n2)C1 (stereo not drawn); test system = monkey, both sexes, plasma; setting = oral, 1 mg/kg, day 1; endpoint = AUC(0-inf); result = 7620 ± 1640 ng·h/mL
Compound = CC[C@H](C)[C@@H]1NC(=O)[C@H](Cc2ccc(O)cc2)NC(=O)CCSCc2cccc(c2)CSCCNC(=O)[C@H](Cc2c[nH]cn2)NC(=O)[C@H](Cc2ccc(O)cc2)NC(=O)[C@H](CC(=O)O)NC(=O)[C@H](Cc2ccc(F)cc2)NC(=O)[C@H](CC(C)C)NC(=O)[C@H](CCCNC(=N)N)NC1=O; assay = PAMPA; setting = 200 µM, 5 h, pH 7.4; endpoint = membrane retention; result = < -0.27%
Compound = CN(C)C(=O)c1ccc(N2Cc3cn(Cc4ccc(F)cc4)nc3C2)cc1; assay = metabolic stability; test system = rat, liver microsomes; endpoint = half-life; result = 49 min
Compound = CC(C)(c1cc(Br)c(O)c(Br)c1)c1cc(Br)c(O)c(Br)c1; test system = whole cow milk; setting = 200 nM nominal; endpoint = dose fraction in milk fat; result = 46.2%
Compound = C=C(NC(=O)c1csc(-c2nc3c(cc2O)-c2nc(cs2)C(=O)NC(C(C)O)C(=O)NC(=C(C)OC)c2nc(cs2)C(=O)NC2c4nc(cs4)C(=O)NC(COC(=O)c4c5c6c(cccc6n4O)COC(=O)C(OC4CC(C)(O)C(N(C)C)C(C)O4)C2OC5)c2nc-3cs2)n1)C(N)=O (stereo not drawn); test system = cynomolgus monkey, male, plasma; setting = intravenous infusion, 1.5 mg/kg twice daily, 0 to 30 h; endpoint = AUC(0-inf); result = 26900 ng·h/mL
Compound = Cc1nc(N)nc2c1C(=O)N[C@@H](c1ccc(F)cc1-c1cccc(O[11CH3])n1)C2; assay = ex vivo biodistribution; test system = mice, MDA-MB-231 subcutaneous xenograft, lungs; setting = 60 min post-injection, baseline, vehicle pre-treatment; endpoint = SUV; result = 2.4 ± 0.3
Compound = CC(C)CCCC(C)C1CCC2C3CC=C4CC(OC(=O)CCC(=O)NCCCOCCOCCOCCCNC(=O)c5ccc(C(=O)O)c(-c6c7ccc(=O)cc-7oc7cc(O)ccc67)c5)CCC4(C)C3CCC12C (stereo not drawn); assay = fluorescence correlation spectroscopy; test system = water; setting = 36 °C; endpoint = diffusion coefficient; result = 423 ± 81 µm²/s
Compound = CN(C)C(=O)c1cccc(N2Cc3cn(Cc4ccc(Cl)cc4)nc3C2)c1; assay = metabolic stability; test system = rat, liver microsomes; endpoint = half-life; result = 44 min
Compound = CCCCN1C(=O)c2cccc3c(NCCCCCCCCCCN4CCOCC4)ccc(c23)C1=O; test system = toluene; endpoint = emission maximum; result = 507 nm
Compound = Cc1noc(C)c1Cn1cc(N2C(=O)CN(Cc3cccc(OS(=O)(=O)O)c3)C2=O)cn1; test system = Sprague-Dawley rat, male; setting = oral, 10 mg/kg of parent drug, 4 h; endpoint = plasma concentration; result = 1910 ng/mL

Repeated from above:
Compound = CCCCN1C(=O)c2cccc3c(NCCCCCCCCN4CCOCC4)ccc(c23)C1=O; test system = DMF; endpoint = emission maximum; result = 527 nm
Compound = C=C[C@]1(C)C[C@@H](OC(=O)CSc2ccc(NC(=O)c3ccco3)cc2)[C@]2(C)[C@H](C)CC[C@]3(CCC(=O)[C@H]32)[C@@H](C)[C@@H]1O; test system = M. gallisepticum-infected chickens, plasma; setting = intramuscular, 80 mg/kg single dose; endpoint = apparent clearance (CL/F); result = 4.31 L/h/kg
Compound = CC1(C)OCCc2cc(C(=O)N3CCC(c4nc(-c5ccccc5)n[nH]4)CC3)ccc21; test system = DPBS; setting = 2 µM; endpoint = stability half-life; result = > 2880 min
Compound = COc1cccc(OC)c1-c1cc(C(=O)NC2(C(=O)O)C3CC4CC(C3)CC2C4)nn1-c1ccc(C(=O)N(C)CCOCCOCCN(C)C(=O)[C@H](CCCCNC(=O)[C@H](CC(C)C)NC(=O)C2OC2C(=O)O)NC(=O)CN2CCN(CC(=O)[O-])CCN(CC(=O)[O-])CCN(CC(=O)[O-])CC2)cc1C(C)C.[177Lu+3] (mixture of isomers); test system = mouse, HT-29 xenograft, kidney; setting = 24 h post injection; endpoint = tissue uptake; result = 6.7 %ID/g
Compound = CC(=O)N1CCN(C(=O)c2ccc(Nc3nccc(-c4ccc(Cl)cc4)n3)cc2)CC1; test system = NSG mice; setting = dose not given, day 4; endpoint = body weight; result = 24.9 g and 25 g and 26 g and 23.6 g
